# Results from different studies.
# Several values in a cell are separate wells, animals, samples, runs or records. Numbers after ± are the reported error.
SMILES,cell line,assay,setting,scale,quantity,value
CC(=O)OC[C@H]1O[C@@H](Sc2sc(C(=O)c3ccc(C)cc3)c(N)c2-c2nc3ccccc3s2)[C@H](OC(C)=O)[C@@H](OC(C)=O)[C@@H]1OC(C)=O,SK-MEL-5,SRB,"10 µM, 48 h",relative to: untreated,growth,45.5%
CC(Cc1ccc(Cl)cc1)=C(c1ccc(Cl)cc1)c1ccc(OCCN(C)C)cc1,NCI-H23,"cell growth or viability, SRB",,,GI50,4.54 µM
CC(=O)OC[C@H]1O[C@@H](Sc2sc(C(=O)c3ccc(Br)cc3)c(N)c2-c2nc3ccccc3s2)[C@H](OC(C)=O)[C@@H](OC(C)=O)[C@H]1OC(C)=O,HOP-92,SRB,"10 µM, 48 h",relative to: untreated,growth,98.3%
COc1cc(CNC(=O)C[C@H](C)CCC=C(C)C)ccc1OCc1cn(-c2ccccc2[N+](=O)[O-])nn1,TK-10,SRB,"10 µM, 48 h",,growth percent,114%
CC(CCC(=O)NCc1ccc(C(=O)NO)cc1)C1CCC2C3C(O)CC4CC(O)CCC4(C)C3CCC12C (stereo not shown),polycystic liver disease cholangiocytes (human),immunoblot,concentration not given,,acetylated α-tubulin level,increased
COc1cc(CNC(=O)C[C@H](C)CCC=C(C)C)ccc1OCc1cn(-c2ccc(F)cc2)nn1,SN12C,SRB,"10 µM, 48 h",,growth percent,80.8%
N=C(N/N=C/c1ccc[nH]1)N/N=C/c1ccc[nH]1,PANC-1,crystal violet,72 h,relative to: IC50 IMR-90 over IC50 PANC-1,selectivity ratio,5.3
COc1cc(CNC(=O)C[C@H](C)CCC=C(C)C)ccc1OCc1cn(-c2cccc(C(F)(F)F)c2)nn1,KM12,SRB,"10 µM, 48 h",,growth percent,85%
CC(C)(C)c1nc(-c2cccc(NS(=O)(=O)c3c(F)cccc3F)c2F)c(-c2ccnc(N)n2)s1.Cc1[nH]c2ccccc2c1CCNCc1ccc(/C=C/C(=O)NO)cc1,C13,flow cytometry,"concentration not given, 48 h",,sub-G1 cells,87.9% and > 80%
COc1cc(CNC(=O)C[C@H](C)CCC=C(C)C)ccc1OCc1cn(-c2ccc(Cl)cc2Cl)nn1,SN12C,SRB,"10 µM, 48 h",,growth percent,64.8%
C=C(C)[C@@H]1CC[C@]2(C(=O)OCO/N=[N+](\[O-])N3CCCC3)CC[C@]3(C)[C@H](CC[C@@H]4[C@@]5(C)CC[C@H](OC(C)=O)C(C)(C)[C@@H]5CC[C@]43C)[C@@H]12,B16-F10,PI flow cytometry,0.25 µM,,cells in G2 phase,15.9%
COc1ccc(C2=NN(C3=NC(=O)C(=Cc4ccc(O)cc4)S3)C(c3ccc(F)cc3)C2)cc1 (stereo not shown),T47D,PI flow cytometry,"concentration not given, 24 h",,cells in %G0-G1 phase,32.6%
Cc1ccc2oc(-c3c4c(N)n[nH]c(=O)c4nn3-c3ccc(NC(=O)/C=C/CN(C)C)cc3)c(C)c2c1,KG-1,Western blot,concentration not given,,FGFR1 phosphorylation,inhibited
CCCC[n+]1cccc(C2NC(C(=O)OCC)C34c5c6c7c8c9c%10c(c%11c%12c3c3c5c5c%13c6c6c7c7c9c9c%14c%10c%10c%11c%11c%12c%12c3c3c5c5c%13c%13c6c6c7c9c7c9c%14c%10c%10c%11c%11c%12c3c3c5c5c%13c6c7c6c9c%10c%11c3c56)C824)c1 (stereo not shown),BCBL1,cell growth or viability,24 h,,CC50,17.8 µM
Cc1nn(-c2ccc(S(=O)(=O)N[C@@H](CO)CC(C)C)cc2)c2nn3nnnc3nc12,HT-29,AO/EB staining,"2 µM, 24 h",,apoptotic cells,38.5 ± 2.12%
COc1ccc(Cl)cc1C(=O)NCCc1ccc(S(=O)(=O)NC(=O)NC2CCCCC2)cc1,hiPSC cardiac tissues 3D,active force,"15 min per concentration, paced at 1 Hz serum-free",,minimum effective concentration,> 100 µM
CC(C)c1cccc(C(C)C)c1-n1ccn(-c2c(C(C)C)cccc2C(C)C)c1=[Se].[Cl][Au],A2780 ADR,MTT,,relative to: A2780 ADR over A2780,resistance factor,0.5
COc1cc(CN2CCN(c3ccc(C(F)(F)F)cc3)CC2)c2cc3[n+](cc2c1O)CCc1cc2c(cc1-3)OCO2,Ca-Ski and MDCK,SRB,48 h,relative to: CC50 MDCK over IC50 Ca-Ski,therapeutic index,24.5
COc1cc(CNC(=O)C[C@H](C)CCC=C(C)C)ccc1OCc1cn(-c2ccc([N+](=O)[O-])cc2)nn1,HOP-92,SRB,"10 µM, 48 h",,growth percent,86.5%

# Some of these lines once more:
SMILES,cell line,assay,setting,scale,quantity,value
CC(CCC(=O)NCc1ccc(C(=O)NO)cc1)C1CCC2C3C(O)CC4CC(O)CCC4(C)C3CCC12C (stereo not shown),polycystic liver disease cholangiocytes (human),immunoblot,concentration not given,,acetylated α-tubulin level,increased
COc1cc(CNC(=O)C[C@H](C)CCC=C(C)C)ccc1OCc1cn(-c2ccccc2[N+](=O)[O-])nn1,TK-10,SRB,"10 µM, 48 h",,growth percent,114%
